Published values from different studies.
Every numbered part comes from another study and shows a few of its results, in no order. Values joined by “and” are separate records of one study, mostly repeats; a detail may differ.
UniProt P18089, sequence (whole entry, looked up): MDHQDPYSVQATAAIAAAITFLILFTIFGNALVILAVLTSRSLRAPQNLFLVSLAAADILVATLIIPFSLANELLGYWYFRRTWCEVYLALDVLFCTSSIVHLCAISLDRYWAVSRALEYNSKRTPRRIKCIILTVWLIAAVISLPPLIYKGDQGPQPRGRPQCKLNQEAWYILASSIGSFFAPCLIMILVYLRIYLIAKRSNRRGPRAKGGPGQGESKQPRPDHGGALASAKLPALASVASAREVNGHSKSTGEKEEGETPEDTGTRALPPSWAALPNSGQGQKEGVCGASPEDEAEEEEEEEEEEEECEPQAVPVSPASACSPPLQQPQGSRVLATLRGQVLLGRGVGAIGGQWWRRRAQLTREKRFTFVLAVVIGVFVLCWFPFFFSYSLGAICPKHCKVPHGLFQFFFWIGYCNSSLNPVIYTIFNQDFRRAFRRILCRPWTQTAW
UniProt Q96L34, sequence (whole entry, looked up): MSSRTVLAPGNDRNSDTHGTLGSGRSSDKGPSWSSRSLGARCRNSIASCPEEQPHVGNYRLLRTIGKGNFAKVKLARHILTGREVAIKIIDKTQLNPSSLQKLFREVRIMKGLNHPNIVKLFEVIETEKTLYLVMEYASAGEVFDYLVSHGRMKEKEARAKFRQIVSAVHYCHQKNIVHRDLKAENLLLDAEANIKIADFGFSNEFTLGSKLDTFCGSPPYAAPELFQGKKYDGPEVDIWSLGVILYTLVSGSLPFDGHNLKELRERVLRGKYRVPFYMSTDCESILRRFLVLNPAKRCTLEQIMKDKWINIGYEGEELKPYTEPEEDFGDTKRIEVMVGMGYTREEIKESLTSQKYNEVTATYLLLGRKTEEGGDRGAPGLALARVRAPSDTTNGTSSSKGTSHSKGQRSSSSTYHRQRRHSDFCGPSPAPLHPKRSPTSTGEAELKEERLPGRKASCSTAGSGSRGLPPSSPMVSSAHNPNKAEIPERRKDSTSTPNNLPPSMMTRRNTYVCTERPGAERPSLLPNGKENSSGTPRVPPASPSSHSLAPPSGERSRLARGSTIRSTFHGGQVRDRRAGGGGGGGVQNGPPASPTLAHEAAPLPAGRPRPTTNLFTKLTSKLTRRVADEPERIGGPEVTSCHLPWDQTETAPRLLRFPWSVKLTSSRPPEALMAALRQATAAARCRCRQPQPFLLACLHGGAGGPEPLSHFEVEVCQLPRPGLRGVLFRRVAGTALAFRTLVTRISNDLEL
UniProt P28482, sequence (whole entry, looked up): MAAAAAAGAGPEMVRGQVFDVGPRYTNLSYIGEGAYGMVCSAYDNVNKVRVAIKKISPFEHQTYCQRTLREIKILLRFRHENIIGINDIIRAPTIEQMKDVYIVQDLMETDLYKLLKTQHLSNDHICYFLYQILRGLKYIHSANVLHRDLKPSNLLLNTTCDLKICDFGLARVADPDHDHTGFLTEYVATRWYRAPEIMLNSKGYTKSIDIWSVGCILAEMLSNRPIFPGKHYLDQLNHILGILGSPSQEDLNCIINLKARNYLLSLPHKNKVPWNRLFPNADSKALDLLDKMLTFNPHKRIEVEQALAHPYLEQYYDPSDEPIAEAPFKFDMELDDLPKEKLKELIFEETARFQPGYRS
UniProt Q8N4C8, sequence (whole entry, looked up): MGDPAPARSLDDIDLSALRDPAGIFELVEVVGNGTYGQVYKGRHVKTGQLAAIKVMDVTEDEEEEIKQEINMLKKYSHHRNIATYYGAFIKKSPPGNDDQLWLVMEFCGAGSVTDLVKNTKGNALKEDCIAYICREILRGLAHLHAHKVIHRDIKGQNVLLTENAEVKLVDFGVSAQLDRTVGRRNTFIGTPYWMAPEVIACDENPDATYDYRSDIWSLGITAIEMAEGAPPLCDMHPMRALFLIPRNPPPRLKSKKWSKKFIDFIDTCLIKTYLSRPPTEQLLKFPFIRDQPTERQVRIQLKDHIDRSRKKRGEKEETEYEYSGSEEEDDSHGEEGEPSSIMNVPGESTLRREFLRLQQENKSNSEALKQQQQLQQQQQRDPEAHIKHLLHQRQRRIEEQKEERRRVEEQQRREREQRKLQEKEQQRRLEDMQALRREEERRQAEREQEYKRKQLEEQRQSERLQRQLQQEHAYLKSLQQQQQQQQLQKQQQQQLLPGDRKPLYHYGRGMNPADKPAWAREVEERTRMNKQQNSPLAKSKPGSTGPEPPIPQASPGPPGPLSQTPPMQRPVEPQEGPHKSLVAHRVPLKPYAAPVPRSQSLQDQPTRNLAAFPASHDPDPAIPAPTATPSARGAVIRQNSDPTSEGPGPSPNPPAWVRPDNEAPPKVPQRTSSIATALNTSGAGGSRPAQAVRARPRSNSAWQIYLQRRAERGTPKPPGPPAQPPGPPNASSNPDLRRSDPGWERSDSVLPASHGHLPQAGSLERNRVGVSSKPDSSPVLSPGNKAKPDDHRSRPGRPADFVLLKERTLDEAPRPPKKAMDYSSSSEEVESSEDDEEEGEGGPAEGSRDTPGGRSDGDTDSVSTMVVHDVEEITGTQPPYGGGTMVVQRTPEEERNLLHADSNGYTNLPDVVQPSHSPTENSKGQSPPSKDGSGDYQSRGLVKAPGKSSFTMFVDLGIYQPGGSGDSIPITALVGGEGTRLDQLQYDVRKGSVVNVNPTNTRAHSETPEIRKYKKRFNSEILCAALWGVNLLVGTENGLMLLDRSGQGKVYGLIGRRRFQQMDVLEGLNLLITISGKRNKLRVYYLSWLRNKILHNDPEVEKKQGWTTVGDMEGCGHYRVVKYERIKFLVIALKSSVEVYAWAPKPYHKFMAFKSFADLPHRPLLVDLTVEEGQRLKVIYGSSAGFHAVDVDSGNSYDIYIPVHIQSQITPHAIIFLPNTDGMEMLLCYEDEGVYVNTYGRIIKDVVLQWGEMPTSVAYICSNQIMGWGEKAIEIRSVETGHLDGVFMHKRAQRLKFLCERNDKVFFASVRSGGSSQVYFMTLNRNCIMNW
UniProt P34969, sequence (whole entry, looked up): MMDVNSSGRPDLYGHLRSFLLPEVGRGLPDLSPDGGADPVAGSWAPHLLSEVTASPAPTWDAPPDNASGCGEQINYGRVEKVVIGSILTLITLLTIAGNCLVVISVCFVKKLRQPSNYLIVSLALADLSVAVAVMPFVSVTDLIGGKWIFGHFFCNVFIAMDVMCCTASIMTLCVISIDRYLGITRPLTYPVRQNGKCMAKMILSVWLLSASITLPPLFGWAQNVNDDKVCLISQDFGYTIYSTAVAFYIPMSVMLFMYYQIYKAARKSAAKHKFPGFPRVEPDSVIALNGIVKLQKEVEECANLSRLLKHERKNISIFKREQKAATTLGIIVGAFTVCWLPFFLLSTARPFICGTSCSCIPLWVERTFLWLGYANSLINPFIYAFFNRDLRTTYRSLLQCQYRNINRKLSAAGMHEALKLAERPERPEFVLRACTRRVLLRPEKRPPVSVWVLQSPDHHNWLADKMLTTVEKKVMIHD
UniProt O75676, sequence (whole entry, looked up): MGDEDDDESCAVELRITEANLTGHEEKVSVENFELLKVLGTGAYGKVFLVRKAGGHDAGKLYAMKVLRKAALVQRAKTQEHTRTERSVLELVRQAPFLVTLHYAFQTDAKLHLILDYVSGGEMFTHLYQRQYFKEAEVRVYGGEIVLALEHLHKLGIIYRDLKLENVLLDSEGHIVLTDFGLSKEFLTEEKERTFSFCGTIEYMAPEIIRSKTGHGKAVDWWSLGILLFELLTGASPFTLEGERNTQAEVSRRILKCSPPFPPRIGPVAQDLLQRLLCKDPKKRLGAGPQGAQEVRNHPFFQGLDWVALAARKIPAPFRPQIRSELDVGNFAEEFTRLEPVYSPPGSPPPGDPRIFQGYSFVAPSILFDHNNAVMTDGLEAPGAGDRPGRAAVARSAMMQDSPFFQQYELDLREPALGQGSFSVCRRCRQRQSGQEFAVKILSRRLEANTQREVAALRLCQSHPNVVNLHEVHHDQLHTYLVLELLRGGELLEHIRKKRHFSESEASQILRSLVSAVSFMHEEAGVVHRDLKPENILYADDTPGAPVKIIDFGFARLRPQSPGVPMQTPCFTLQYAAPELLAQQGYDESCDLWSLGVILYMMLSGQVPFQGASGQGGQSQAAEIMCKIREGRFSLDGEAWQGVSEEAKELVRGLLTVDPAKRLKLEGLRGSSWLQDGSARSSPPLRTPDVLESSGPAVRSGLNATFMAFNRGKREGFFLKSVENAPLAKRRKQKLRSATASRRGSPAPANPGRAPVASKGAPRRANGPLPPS
UniProt P50750, sequence (whole entry, looked up): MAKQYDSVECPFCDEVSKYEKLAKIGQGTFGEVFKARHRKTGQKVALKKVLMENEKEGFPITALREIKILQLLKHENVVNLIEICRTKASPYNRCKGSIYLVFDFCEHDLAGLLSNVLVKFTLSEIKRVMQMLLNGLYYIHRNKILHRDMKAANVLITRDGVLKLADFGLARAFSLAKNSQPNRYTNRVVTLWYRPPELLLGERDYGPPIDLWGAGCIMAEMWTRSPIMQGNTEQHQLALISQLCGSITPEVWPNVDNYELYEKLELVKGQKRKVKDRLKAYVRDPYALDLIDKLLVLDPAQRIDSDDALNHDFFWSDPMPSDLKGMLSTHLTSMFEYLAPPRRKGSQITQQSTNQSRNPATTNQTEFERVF
UniProt Q15759, sequence (whole entry, looked up): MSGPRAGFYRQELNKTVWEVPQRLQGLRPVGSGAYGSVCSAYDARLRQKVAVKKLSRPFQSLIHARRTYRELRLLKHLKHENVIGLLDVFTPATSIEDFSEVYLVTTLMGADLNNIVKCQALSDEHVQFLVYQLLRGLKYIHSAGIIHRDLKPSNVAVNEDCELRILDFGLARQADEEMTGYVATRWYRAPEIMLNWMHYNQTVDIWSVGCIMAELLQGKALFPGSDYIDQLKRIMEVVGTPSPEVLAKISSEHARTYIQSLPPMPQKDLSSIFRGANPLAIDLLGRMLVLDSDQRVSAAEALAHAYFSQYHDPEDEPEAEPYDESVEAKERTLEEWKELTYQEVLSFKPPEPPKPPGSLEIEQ

Sample 1
Compound: CN(C)S(=O)(=O)c1ccc2c(c1)/C(=C/c1cc3c([nH]1)CCCC3)C(=O)N2
Read-out: enzyme activity
Action: inhibitor
Tested at: 0.5 µM
Reference: control
Serine/threonine-protein kinase PAK 3 (PAK3, Homo sapiens, UniProt O75914) — remaining activity: 97.6%.
For Serine/threonine-protein kinase tousled-like 2 (TLK2, Homo sapiens, UniProt Q86UE8): remaining activity read 102%.
The remaining activity was 104% (Ribosomal protein S6 kinase alpha-4 (RPS6KA4, Homo sapiens, UniProt O75676)).
It gave 72% for remaining activity (Serine/threonine-protein kinase DCLK2 (DCLK2, Homo sapiens, UniProt Q8N568)).
For Cyclin-dependent kinase 9, with cyclin K (CDK9, Homo sapiens, UniProt P50750): remaining activity read 96.9%.
It gave 51.5% for remaining activity (MAP/microtubule affinity-regulating kinase 4 (MARK4, Homo sapiens, UniProt Q96L34)).
Cyclin-dependent kinase 1, with cyclin A (CDK1, Homo sapiens, UniProt P06493) — remaining activity: 70.6%.
For Mitogen-activated protein kinase 1 (MAPK1, Homo sapiens, UniProt P28482): remaining activity read 101%.
Misshapen-like kinase 1 (MINK1, Homo sapiens, UniProt Q8N4C8) — remaining activity: 83.8%.
The remaining activity was 108% (Mitogen-activated protein kinase 11 (MAPK11, Homo sapiens, UniProt Q15759)).
It gave 92.9% for remaining activity (Dual specificity protein kinase CLK3 (CLK3, Homo sapiens, UniProt P49761)).
It gave 95.2% for remaining activity (Rho-associated protein kinase 1 (ROCK1, Homo sapiens, UniProt Q13464)).
The remaining activity was 95.7% (Calcium/calmodulin-dependent protein kinase type 1B (PNCK, Homo sapiens, UniProt Q6P2M8)).
It gave 98.9% for remaining activity (Myosin-IIIb (MYO3B, Homo sapiens, UniProt Q8WXR4)).

Sample 2
SMILES: COc1cc(C(=O)N2CCC(N3CCN(C)CC3)CC2)ccc1Nc1ncc2c(n1)N(C)c1ccccc1C(=O)N2C
For CDK5 (mouse); probe labelling, KiNativ, measured: DLkPQNLLINR peptide, LYS2 site; brain tissue lysate (mouse); 0.1 µM, with: ADP acyl-phosphate probe: inhibition read -9.1%.
For BARK1 and BARK2 mouse; KiNativ profiling; mouse brain lysate; 0.1 µM, LYS1 site, with: ADP acyl phosphate probe: inhibition read 5%.
PIP4K2A and PIP4K2B human; KiNativ profiling; human PBMC; 0.1 µM, ATP site, with: ATP acyl phosphate probe — inhibition: -8.6% and 1.2%.
The inhibition was -17.9% (STLK5 (mouse); probe labelling, KiNativ, measured: LYS2 site peptide; brain tissue lysate (mouse); 1 µM, with: ATP acyl-phosphate probe).
The inhibition was 16.7% (probe labelling, KiNativ profiling, measured: TSTQEYAAkIINTK peptide; human PBMC lysate; concentration not given, Lys1 site, with: ADP acyl phosphate probe).
For mouse MER and TYRO3; probe labelling, KiNativ ATP probe; mouse brain lysate; 1 µM: inhibition read 6.7%.
The inhibition was 15.6% (Serine/threonine-protein kinase MARK2 (Mark2, Mus musculus, UniProt Q05512); KiNativ profiling; mouse brain lysate; 0.1 µM, LYS1 site, with: ADP acyl phosphate probe).
The inhibition was 8.9% (p70S6K human; KiNativ profiling; human PBMC lysate; concentration not given, ATP probe, ATP loop site).
The inhibition was 6.3% (NDR2 (mouse); probe labelling, KiNativ ATP probe; mouse brain lysate; 0.1 µM, LYS1 labelled site).
The inhibition was 7.4% (MLK2 (mouse); probe labelling, KiNativ ADP probe; mouse brain lysate; 1 µM, LYS1 labelled site).
For mouse CK1δ and CK1ε; probe labelling, KiNativ ATP probe; mouse brain lysate; 1 µM, LYS2 site: inhibition read 33.6%.
The inhibition was 3.5% (BRAF (mouse); probe labelling, KiNativ ADP probe; mouse brain lysate; 1 µM, LYS2 labelled site).

Sample 3
SMILES: FC(F)(F)c1ccc2c(c1)nc(-c1cccnc1)n2C1CC1
Read-out: cell-free assay
Tested at: 10 µM
For 5-hydroxytryptamine receptor 7 (HTR7, Homo sapiens, UniProt P34969): inhibition read 0.88%.
For Muscarinic acetylcholine receptor M4 (CHRM4, Homo sapiens, UniProt P08173): inhibition read -11.5%.
The inhibition was 60.4% (5-hydroxytryptamine receptor 6 (HTR6, Homo sapiens, UniProt P50406)).
Alpha-2B adrenergic receptor (ADRA2B, Homo sapiens, UniProt P18089) — inhibition: 43.3%.
For Beta-1 adrenergic receptor (ADRB1, Homo sapiens, UniProt P08588): inhibition read 13.4%.

Sample 4
Organism: Sarcocystis neurona
Read-out: parasite activity
Tested at: 10 µM
Time: 96 h
`Oc1ncnc2[nH]ncc12` — result for activity class: “inactive”.
Under activity class, `Nc1cc(N2CCCCC2)nc(N)[n+]1[O-]` is recorded as “inactive”.
`NNC(=O)c1ccncc1` — result for activity class: “inactive”.
`CCN(CC)C(=S)SSC(=S)N(CC)CC` — result for activity class: “active”.
`COc1ccc([C@@H]2Sc3ccccc3N(CCN(C)C)C(=O)[C@@H]2OC(C)=O)cc1` — result for activity class: “inactive”.

A few entries again (sample 2):
The inhibition was 8.9% (p70S6K human; KiNativ profiling; human PBMC lysate; concentration not given, ATP probe, ATP loop site).
The inhibition was 15.6% (Serine/threonine-protein kinase MARK2 (Mark2, Mus musculus, UniProt Q05512); KiNativ profiling; mouse brain lysate; 0.1 µM, LYS1 site, with: ADP acyl phosphate probe).
For BARK1 and BARK2 mouse; KiNativ profiling; mouse brain lysate; 0.1 µM, LYS1 site, with: ADP acyl phosphate probe: inhibition read 5%.
The inhibition was 16.7% (probe labelling, KiNativ profiling, measured: TSTQEYAAkIINTK peptide; human PBMC lysate; concentration not given, Lys1 site, with: ADP acyl phosphate probe).
